Measurements of several laboratories.
Each numbered part is a random draw from the data of one study; scales do not carry over between parts.

Set 1 — concentration: 50 µM
Target: Bromodomain-containing protein 4, BD1 (BRD4, Homo sapiens, UniProt O60885)
Structure (SMILES)	inhibition [%]
COc1cc(F)c(F)c(Nc2ccc(I)cc2F)c1NS(=O)(=O)C1(C[C@H](O)CO)CC1	0.2
COc1cc2c(Oc3ccc(NC(=O)C4(C(=O)Nc5ccc(F)cc5)CC4)cc3F)ccnc2cc1OCCCN1CCOCC1	47.1
CC(C)(C)c1cnc(CSc2cnc(NC(=O)C3CCNCC3)s2)o1	15.4
CCN(CC)CCNC(=O)c1c(C)[nH]c(/C=C2\C(=O)Nc3ccc(F)cc32)c1C	66.5
CN1CCC(CNc2ccc3ncc(-c4cccc(OC(F)(F)F)c4)n3n2)CC1	27.1
CCOc1cc2ncc(C#N)c(Nc3ccc(OCc4ccccn4)c(Cl)c3)c2cc1NC(=O)/C=C/CN(C)C	34.4
COc1cc2ncn(-c3cc(OCc4ccccc4C(F)(F)F)c(C(N)=O)s3)c2cc1OC	8.6
Nc1nccc(-c2c(-c3ccc(F)cc3)ncn2C2CCNCC2)n1	16.8
N#CC[C@H](C1CCCC1)n1cc(-c2ncnc3[nH]ccc23)cn1	-1
C=CCn1c(=O)c2cnc(Nc3ccc(N4CCN(C)CC4)cc3)nc2n1-c1cccc(C(C)(C)O)n1	12.4

Set 2 — effect on: enzyme activity; mode: inhibitor; concentration: 0.5 µM; relative to: control
Target: Death-associated protein kinase 3 (DAPK3, Homo sapiens, UniProt O43293)
UniProt O43293, sequence (whole entry, looked up): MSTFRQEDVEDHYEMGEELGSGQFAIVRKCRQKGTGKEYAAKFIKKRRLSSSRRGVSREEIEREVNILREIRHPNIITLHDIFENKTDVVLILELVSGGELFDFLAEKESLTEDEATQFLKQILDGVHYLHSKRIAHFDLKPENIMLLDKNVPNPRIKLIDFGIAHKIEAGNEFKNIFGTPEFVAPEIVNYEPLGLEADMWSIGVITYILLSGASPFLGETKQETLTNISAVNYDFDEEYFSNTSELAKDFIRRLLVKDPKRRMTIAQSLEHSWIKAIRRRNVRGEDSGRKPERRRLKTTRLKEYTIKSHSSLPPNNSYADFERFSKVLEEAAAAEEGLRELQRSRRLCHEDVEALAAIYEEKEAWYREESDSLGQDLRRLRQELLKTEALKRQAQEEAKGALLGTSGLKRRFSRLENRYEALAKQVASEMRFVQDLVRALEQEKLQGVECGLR
SMILES	remaining activity
CN(C)S(=O)(=O)c1ccc2c(c1)/C(=C/c1cc3c([nH]1)CCCC3)C(=O)N2	94.4%
CN1CCN(c2ccc3nc(-c4c(N)c5c(F)cccc5[nH]c4=O)[nH]c3c2)CC1	109%
N#Cc1cnc2cnc(NCc3cccnc3)cc2c1Nc1ccc(F)c(Cl)c1	101%
O=C1NC(=O)c2c1c1c3ccccc3[nH]c1c1[nH]c3cc(Br)ccc3c21	62.9%
O=Nc1c(-c2c(O)[nH]c3cc(Br)ccc23)[nH]c2ccccc12	84.9%
O=C1Nc2ccc(Br)cc2/C1=C/c1cc2c([nH]1)CCCC2	92.8%
O=C1NC(=O)c2c1c1c3ccccc3[nH]c1n1cncc21	29.6%
CCCNC(=O)Nc1ccc(Oc2ncnc3cc(OC)c(OC)cc23)cc1Cl	88.8%
COc1ccc(COc2ccc(Cc3cnc(N)nc3N)cc2OC)cc1	104%
O=C1Cc2c([nH]c3ccc(Br)cc23)-c2ccccc2N1	111%
c1ccc2c(-c3ccncc3)c[nH]c2c1	101%
CCCCc1c(-c2ccc(OC)cc2)[nH]c2nccnc12	102%
Cc1ccc(S(=O)(=O)/C=C/C#N)cc1	97.4%
COc1ccc2c(c1)c(C1=C(c3c[nH]c4ccccc34)C(=O)NC1=O)cn2CCCN(C)C	75.5%
O=C1Nc2ccccc2/C1=C\c1c(Cl)[nH]c2ccccc12	91.2%
Cc1cc(Nc2cc(N3CCN(C)CC3)nc(Sc3ccc(NC(=O)C4CC4)cc3)n2)[nH]n1	109%
O=C(c1cc2cc(O)ccc2[nH]1)c1cc2cc(O)ccc2[nH]1	104%
c1ccc(-c2n[nH]c3c2oc2ccccc23)cc1	91.5%
O=c1cc(N2CCOCC2)oc2c(-c3ccccc3)cccc12	96.5%

Set 3 — SMILES: C=CCc1ccc(O)c(-c2ccc(O)c(CC=C)c2)c1; effect on: chloride current; method: whole-cell voltage clamp
ANO1 del476-501/F807I: Anoctamin-1 (ANO1, Homo sapiens, UniProt Q5XXA6, del476-501/F807I)
UniProt Q5XXA6, sequence (whole entry, unmodified, looked up): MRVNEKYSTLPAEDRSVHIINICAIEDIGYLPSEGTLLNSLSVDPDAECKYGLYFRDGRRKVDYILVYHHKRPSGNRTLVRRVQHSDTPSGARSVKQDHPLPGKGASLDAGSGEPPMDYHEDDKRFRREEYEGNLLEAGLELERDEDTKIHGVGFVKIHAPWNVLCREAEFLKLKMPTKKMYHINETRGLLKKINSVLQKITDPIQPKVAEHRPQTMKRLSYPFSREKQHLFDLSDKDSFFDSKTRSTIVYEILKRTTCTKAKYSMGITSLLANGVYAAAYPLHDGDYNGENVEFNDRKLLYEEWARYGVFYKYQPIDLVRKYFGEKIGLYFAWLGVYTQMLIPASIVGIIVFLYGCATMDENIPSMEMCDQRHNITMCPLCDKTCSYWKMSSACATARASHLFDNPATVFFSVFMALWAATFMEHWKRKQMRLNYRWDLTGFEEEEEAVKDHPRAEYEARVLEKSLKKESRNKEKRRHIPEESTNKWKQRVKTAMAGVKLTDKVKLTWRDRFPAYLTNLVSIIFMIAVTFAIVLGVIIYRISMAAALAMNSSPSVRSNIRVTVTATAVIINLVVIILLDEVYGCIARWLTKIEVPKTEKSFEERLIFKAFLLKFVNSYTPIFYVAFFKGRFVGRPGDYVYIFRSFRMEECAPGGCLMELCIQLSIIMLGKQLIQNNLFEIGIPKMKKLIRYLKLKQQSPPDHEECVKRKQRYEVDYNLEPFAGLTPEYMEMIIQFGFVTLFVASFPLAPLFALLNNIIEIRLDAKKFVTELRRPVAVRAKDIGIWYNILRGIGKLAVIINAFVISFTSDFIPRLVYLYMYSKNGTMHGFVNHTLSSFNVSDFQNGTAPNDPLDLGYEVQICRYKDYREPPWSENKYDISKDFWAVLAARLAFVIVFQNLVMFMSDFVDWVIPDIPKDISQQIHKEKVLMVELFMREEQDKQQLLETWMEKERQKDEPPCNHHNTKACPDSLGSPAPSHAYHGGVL
ANO1 del476-501/F803A: Anoctamin-1 (ANO1, Homo sapiens, UniProt Q5XXA6, del476-501/F803A)
target	test	setting	IC50 [µM]
Anoctamin-1 (ANO1, Homo sapiens, UniProt Q5XXA6, del476-501)		membrane voltage 40 mV, with: 300 nM Ca2+	3.42
ANO1 del476-501/F807I	inhibitor	F781I mutant at -60 mV	9.41
Anoctamin-1 (ANO1, Homo sapiens, UniProt Q5XXA6, D383A/del476-501)		membrane voltage 60 mV	4.23
ANO1 del476-501/F803A		membrane voltage 20 mV	10.8
ANO1 del476-501/F807I	inhibitor	mutant F781I at 100 mV, with: 300 nM Ca2+	7.5
Anoctamin-1 (ANO1, Homo sapiens, UniProt Q5XXA6, del476-501/R631K)	inhibitor	mutant R605K	8.6
ANO1 del476-501/F803A		membrane voltage -60 mV	14.9
Anoctamin-1 (ANO1, Homo sapiens, UniProt Q5XXA6, del476-501/L548A)		membrane voltage 40 mV	5.69
Anoctamin-1 (ANO1, Homo sapiens, UniProt Q5XXA6, del476-501/F628I)	inhibitor	mutant F602I	9.86
Anoctamin-1 (ANO1, Homo sapiens, UniProt Q5XXA6, del476-501/E650A)		membrane voltage 100 mV	4.39
Anoctamin-1 (ANO1, Homo sapiens, UniProt Q5XXA6, del476-501/F646A)	inhibitor	pore pocket mutant F620A at 100 mV, with: 300 nM Ca2+	9.57

Set 4 — target: GABAA receptor benzodiazepine site; notes: off-target scan
SMILES	Ki [µM]
CN(C)[C@@H]1CCN(c2cc(-c3ccccc3)nc3ccnn23)C1	1.94
CCNC(=O)c1cc2c(N3CCOC[C@H]3C)ccnc2n1C	0.224
O=c1nc(-c2ccccn2)sc2ccccc12	0.934
COCc1nc2cnc3cc(-c4c(C)noc4C)c(OC[C@H]4CCNC4)cc3c2n1[C@H](C)c1ccccc1	1.97
CC1CCN(c2ccnc(NCc3cn(C)cn3)n2)CC1	0.512
Cc1cc2c(-c3ccco3)cnc(N[C@H]3CCN(C)C[C@@H]3C(=O)NC3CCCCC3)c2[nH]c1=O	2.54
Cc1nc(N2CC[C@@H](O)C2)ncc1-c1cc(C(F)(F)F)cc2[nH]ncc12	4.54
CC(=O)c1c(NS(C)(=O)=O)c2cc(-c3ccc(Cl)cc3)c(-c3ccc(Cl)cc3Cl)nc2n(C)c1=O	1.66
CCNC(=O)c1cc2c(N3CCOC[C@@H]3C)ccnc2[nH]1	1.53
Cc1ncc(-c2cc(Cl)ccc2F)cc1-n1c(=O)n(CC(N)=O)c2ccccc21	2.75

For quick reference, copied from above (set 1):
Structure (SMILES)	inhibition [%]
CN1CCC(CNc2ccc3ncc(-c4cccc(OC(F)(F)F)c4)n3n2)CC1	27.1
CCOc1cc2ncc(C#N)c(Nc3ccc(OCc4ccccn4)c(Cl)c3)c2cc1NC(=O)/C=C/CN(C)C	34.4
COc1cc2ncn(-c3cc(OCc4ccccc4C(F)(F)F)c(C(N)=O)s3)c2cc1OC	8.6
Nc1nccc(-c2c(-c3ccc(F)cc3)ncn2C2CCNCC2)n1	16.8
N#CC[C@H](C1CCCC1)n1cc(-c2ncnc3[nH]ccc23)cn1	-1
